Measured values collected from several papers.
Parts stem from different laboratories: compare values within a part only. Positions count from the first letter of the parent shown.

Set 1
Target: RNA binding protein fox-1 homolog 2, RRM domain, GST-SBP tag (RBFOX2, Homo sapiens, UniProt O43251-10, residues 100-194)
Method: RNA Bind-n-Seq
Molecule type: RNA
Medium: in vitro
Tested at: 365 nM
Setting: natural RNA segment, single round, ends assumed
Relative to: no-protein control
Direction: higher = stronger binding
Quantity: RBNS enrichment (R)
Constant ends, left off below: GGGAGUUCUACAGUCCGACGAUC … UGGAAUUCUCGGGUGCCAA
Target sequence (chain): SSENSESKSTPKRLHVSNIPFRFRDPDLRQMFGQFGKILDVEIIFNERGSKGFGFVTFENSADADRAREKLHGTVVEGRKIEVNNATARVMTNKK
CUCUCUACCCUGAAAUGGGUGAAGGAGUCUUGUUCAGUUGUUUUAUAAGAGGUGCUCACAGAAAGAAUAAGGGAAACUUCCCUGAUACCUUAAUGCAAAAUCAAAAUUAU: 0.286
CUUUGUGUGGUGCUGAUGCUGUGCGCAGUAGGAUUCUUGGAUGACUCUCCAUCAGUCACAGACUCCCCCUGUUGCAAAGUGUCAGGCUGACUCGACAGUCACCGUAAAAU: 0.548
AACCUGGAUGGGGAAAAGCAUUUCCCAUAGCACUCCAUGUAAUAUGAGUGCUCUGUGAGAUGUUCAUCAGUGUUUUAUAGAAAUGGUGUUGCUGGGAAACCAAGUUUGCA: 3.31
GUUUAUGAGCAUCUGGAAGAGCAAAUUCUAACUCCUGUCCAAGUGACAGACUGGAAUAUUUCUUAGGCAAUGCAAGGCAAACAUUCACAUGAUCCACCGUUUUAACACCU: 0.224
GAAUCGUUCUGGUGCCUUAAUGCACAGCUGGAAUUCAGGUAAACACAUCAGCUGUUGCUGGCGGUUGGAAAGGAGGGCAUCUUGGCUGUGUGGCACUUAGUGGUCAGAUU: 0.456
UACACUUAUCAAAGCUAUUUUCUUAUGAAAACGUCCCUCUCUCCAUACCAUCAGUUUCUCAGUUCCAGAAGUUAUACCUUUAUUUUGAGCUGUGUAUAGGUAGAAUAAAA: 0.479
CACCUCUCCAGGGACUGAGCAUCAUUGGCUCAUUGUCAUGGGGAGCUCCCUCCUGACCACGGAGGCUCCACUGGUGGUGCCACAUGGGAAACAUCUACUUCUCAGUCUAA: 0.338
UCACAUGGGCUCUUUGGGGGUCUGUCUGCUGGGGCAGGAAUAAUCCCAGUUCUCUGACUCUCGCUCUAGAGUUGAGAACAGGCAGGGCCUGGUGUGCUCUGGGAUGUGCA: 5.9
CUGUAUACCUAGAUGAUGACUAAAUGCAAAAUCCUUGGGCUUUGGUUUUUUUCUAGUAAGGAUUUUAAAUAACUGCCGACUUCAAAAGUGUUCUUAAAACGAAAGAUAAU: 0.418
UUCUCGGUCCUCACCAGCCCAUCACUUAUAGUGGGCUCAUCAGGAGGAGCAGGGGAGGAGGACAGAGGCCCCGCUGCCCGCUGCCUCCUUGGUCUCUAGAGGUAUUGAGA: 0.63

Set 2
Target: CCND3, cyclin fold, Cln2 fusion (human)
Method: yeast growth competition, sequencing
Medium: yeast
Setting: weak parent motif
Relative to: not given
Direction: higher = stronger binding
Quantity: normalised enrichment score
Starting sequence: SAMHD1 docking peptide (human); ASKSRVQLFKDDP; partner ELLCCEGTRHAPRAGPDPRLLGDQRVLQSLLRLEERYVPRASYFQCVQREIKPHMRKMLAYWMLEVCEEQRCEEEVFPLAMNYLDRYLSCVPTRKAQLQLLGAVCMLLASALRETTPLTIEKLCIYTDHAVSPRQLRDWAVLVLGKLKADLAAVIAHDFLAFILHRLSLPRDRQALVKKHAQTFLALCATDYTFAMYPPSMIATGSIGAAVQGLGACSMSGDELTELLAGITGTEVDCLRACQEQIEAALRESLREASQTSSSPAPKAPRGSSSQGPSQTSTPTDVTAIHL
V6F: 0.27
S4I: 0.159
F9Y: 0.0859
D11E: 0.224
R5P: -0.38
K10N: -0.0024
L8T: 0.303
R5N: -0.16
V6C: 0.0603

Set 3
Target: Interferon regulatory factor 5, full length, phosphomimetic (IRF5, Homo sapiens, UniProt Q13568-2, residues 1-514, S451D/S453D/S456D/S462D)
Method: protein-binding microarray
Molecule type: double-stranded DNA, one strand shown
Medium: in vitro
Tested at: 940 nM top
Setting: 60-bp whole probe
Together with: salmon DNA 0.4 mg/ml
Relative to: random background probes
Direction: higher = stronger binding
Quantity: fitted relative affinity
Constant ends, left off below: GCCTAGCAC … GTCTTGATTCGCTTGACGCTGCTG
GTCGGTTTCGGACTGGGGACGTGCTAG: 7.91 z-score
TCAATTTTTTTTATCAAACTGTGCTAG: 0.476 z-score
TTCACTATTGCTTCCTCTTTGTGCTAG: 1.23 z-score
CACAGGCTGCACAGAATGTAGTGCTAG: -0.369 z-score
TCACATTGAGATTTTCATACTGTGCTA: 0.352 z-score
GACGGTCTCGACACTGGGGACGTGCTA: 1.04 z-score
GTAGGTTTCGGTCTCGGTTAGTGCTAG: 14.5 z-score
TTAGAACTGAGGCTCGATTAGTGCTAG: -0.446 z-score
GACGGTACCGGTTTCGGGACGTGCTAG: 3.99 z-score
TACGAACTGAGTTTCGAGACGTGCTAG: 3.7 z-score
TCAGTTTCCTTCCTCTTACTGTGCTAG: 3 z-score
GGAAATTCTCATTTCCAATTGTGCTAG: 0.526 z-score
TCAATTTTTAGTTAGAAACTGTGCTAG: -0.109 z-score
GACGATCTCAGTATCGGGACGTGCTAG: 1.73 z-score
GACGGTTTCCTTTTCCTGCCGTGCTAG: 1.96 z-score

Further values, each from its own experiment
PhoQ, residues 284 288 289 292 302 303 SQSLSM — fold induction (PhoP, residues 12 14 15 18 19 LQHIR (Escherichia coli, UniProt P23836); Sort-seq, item: YFP reporter; E. coli; PhoQ-PhoP variant library, together with: 10 µM Mg2+; relative to: high Mg2+ state, higher = stronger signaling): 0.965

A few entries again (set 2):
V6F: 0.27
S4I: 0.159
F9Y: 0.0859
D11E: 0.224
R5P: -0.38
